# Measurements from different studies.
# ± gives the spread as reported.
Structure (SMILES),tested on,assay,system,conditions,how to read,endpoint,value
Cc1cc(C)c(CNC(=O)c2cc(Cl)c3c(c2C)O[C@@](C)([C@H]2CC[C@H](N(C)C)CC2)O3)c(=O)[nH]1,,,relapsed/refractory NHL patients,"oral, 200 mg once daily, onset after cycle 1 day 1",,grade ≥3 adverse event COVID-19,4.2%
CC(C)C(=O)OC[C@H]1O[C@@H](n2ccc(NO)nc2=O)[C@H](O)[C@@H]1O,,,human plasma,24 h,,remaining compound,0%
Cc1ncc2n1-c1ccc(Cl)cc1C(c1ccccc1F)=NC2,,,"healthy male humans, plasma","oral, dose not given, phase I DDI study, with: vericiguat",,AUC,96.4 ng·h/mL
C[C@H]1CN(C(=O)CC#N)[C@]12CCN(c1ncnc3[nH]ccc13)C2,,,human,"oral, 12 mg single dose",,participants with positive SARS-CoV-2 test,0%
CC[C@H](C)[C@H](NC(=O)[C@H](CC(C)C)NC(=O)[C@H](Cc1c[nH]c2ccccc12)NC(=O)[C@H](CCC(N)=O)NC(=O)[C@@H](NC(=O)[C@H](Cc1ccccc1)NC(=O)[C@H](C)NC(=O)[C@H](CCCCNC(=O)COCCOCCNC(=O)COCCOCCNC(=O)CC[C@H](NC(=O)CCCCCCCCCCCCCCCCCCC(=O)O)C(=O)O)NC(=O)[C@H](CCC(N)=O)NC(=O)[C@H](C)NC(=O)[C@@H](NC(=O)[C@H](CCCCN)NC(=O)[C@H](CC(=O)O)NC(=O)[C@H](CC(C)C)NC(=O)C(C)(C)NC(=O)[C@@H](NC(=O)[C@H](CO)NC(=O)[C@H](Cc1ccc(O)cc1)NC(=O)[C@H](CC(=O)O)NC(=O)[C@H](CO)NC(=O)[C@@H](NC(=O)[C@H](Cc1ccccc1)NC(=O)[C@@H](NC(=O)CNC(=O)[C@H](CCC(=O)O)NC(=O)C(C)(C)NC(=O)[C@@H](N)Cc1ccc(O)cc1)[C@@H](C)O)[C@@H](C)O)[C@@H](C)CC)[C@@H](C)CC)C(C)C)C(=O)N[C@@H](C)C(=O)NCC(=O)NCC(=O)N1CCC[C@H]1C(=O)N[C@@H](CO)C(=O)N[C@@H](CO)C(=O)NCC(=O)N[C@@H](C)C(=O)N1CCC[C@H]1C(=O)N1CCC[C@H]1C(=O)N1CCC[C@H]1C(=O)N[C@@H](CO)C(N)=O,,,"healthy subjects, single ascending dose","0.25 mg, titre ≥1:20",,treatment-induced ADA positive subjects,0%
C[C@@H]1COCCN1c1cc(C2([S@](C)(=N)=O)CC2)nc(-c2cc[nH]c3nccc2-3)n1,,,Japanese advanced solid tumour patients,"oral, 160 mg twice daily, any grade",,COVID-19 incidence,16.7%
C=CC(=O)N1CCC([C@@H]2CCNc3c(C(N)=O)c(-c4ccc(Oc5ccccc5)cc4)nn32)CC1,,,healthy human volunteers,160 mg,,"TEAE, positive test, SARS-CoV-2",3.4%
CC[C@H](C)[C@H](NC(=O)[C@H](CC(C)C)NC(=O)[C@H](Cc1c[nH]c2ccccc12)NC(=O)[C@H](CCC(N)=O)NC(=O)[C@@H](NC(=O)[C@H](Cc1ccccc1)NC(=O)[C@H](C)NC(=O)[C@H](CCCCNC(=O)COCCOCCNC(=O)COCCOCCNC(=O)CC[C@H](NC(=O)CCCCCCCCCCCCCCCCCCC(=O)O)C(=O)O)NC(=O)[C@H](CCC(N)=O)NC(=O)[C@H](C)NC(=O)[C@@H](NC(=O)[C@H](CCCCN)NC(=O)[C@H](CC(=O)O)NC(=O)[C@H](CC(C)C)NC(=O)C(C)(C)NC(=O)[C@@H](NC(=O)[C@H](CO)NC(=O)[C@H](Cc1ccc(O)cc1)NC(=O)[C@H](CC(=O)O)NC(=O)[C@H](CO)NC(=O)[C@@H](NC(=O)[C@H](Cc1ccccc1)NC(=O)[C@@H](NC(=O)CNC(=O)[C@H](CCC(=O)O)NC(=O)C(C)(C)NC(=O)[C@@H](N)Cc1ccc(O)cc1)[C@@H](C)O)[C@@H](C)O)[C@@H](C)CC)[C@@H](C)CC)C(C)C)C(=O)N[C@@H](C)C(=O)NCC(=O)NCC(=O)N1CCC[C@H]1C(=O)N[C@@H](CO)C(=O)N[C@@H](CO)C(=O)NCC(=O)N[C@@H](C)C(=O)N1CCC[C@H]1C(=O)N1CCC[C@H]1C(=O)N1CCC[C@H]1C(=O)N[C@@H](CO)C(N)=O,,,human,"subcutaneous, 15.0 mg once weekly, week 23, multiple doses",,Vz/F,7.61 L
Nc1ncnc2c([C@@H]3N[C@H](CO)[C@@H](O)[C@H]3O)c[nH]c12,Marburg virus,,"HeLa, Musoke","1.6 µM, 1 h",,viral RNA copies,2.09e+07 copies/mL
CCOP(=S)(OCC)Oc1nc(Cl)c(Cl)cc1Cl,rat CYP3A,"midazolam 4-hydroxylation, non-competitive inhibitor","rat Sprague-Dawley, liver microsomes","10 min, pH 7.4, with: midazolam 15 to 214 µM",,Ki,77.7 ± 17.2 µM
Cn1cnc(Cn2c(=O)[nH]/c(=N\c3cc4cn(C)nc4cc3Cl)n(Cc3cc(F)c(F)cc3F)c2=O)n1,,,"healthy Japanese adults, plasma","oral, 750 mg, day 1, multiple dosing, fasted, with: prednisolone",,Cmax,33100 ng/mL
CNC(=O)[C@@H](NC(=O)[C@H](CC(C)C)[C@H](O)C(=O)NO)C(C)(C)C,human fibrinogen,SDS-PAGE,Daboia russelii,"concentration not given, unit not given, with: KA venom",reference: untreated fibrinogen,remaining fibrinogen γ chain,0.863
Cc1cn([C@H]2O[C@@H](CO[P@@](=O)(N[C@@H](C)C(=O)OC(C)C)Oc3ccccc3)[C@H](O)[C@H]2F)c(=O)[nH]c1=O,,refers to: COVID-19 infection,human,10 mg,,patients with TEAE,0%
Cn1cnc(Cn2c(=O)[nH]/c(=N\c3cc4cn(C)nc4cc3Cl)n(Cc3cc(F)c(F)cc3F)c2=O)n1,,,"human, mild severity, treatment-related TEAE","oral, 375 mg",,patients with TEAE,3.1%
O=C[C@H](C[C@@H]1CCNC1=O)NC(=O)[C@H](CC1CCCCC1)NC(=O)c1cc2ccccc2[nH]1,,,"rats, plasma","intravenous, 4 mg/kg",,AUC,3180 ng·h/mL
C[C@@H]1Cc2c(Cl)cc(C(=O)N[C@@H](Cc3ccccc3)C(=O)O)c(O)c2C(=O)O1,,,chicken embryo,"in ovo injection, 0.50 µg/egg",,body weight to egg weight ratio,72.2 ± 2.9
Cc1cc(C)c(CNC(=O)c2cc(Cl)c3c(c2C)O[C@@](C)([C@H]2CC[C@H](N(C)C)CC2)O3)c(=O)[nH]1,,,"human, relapsed/refractory NHL","concentration not given, treatment-related TEAEs, grade 4",,COVID-19 pneumonia incidence,0%
CC(C)(C)[C@H](NC(=O)C(F)(F)F)C(=O)N1C[C@H]2[C@@H]([C@H]1C(=O)N[C@H](C#N)C[C@@H]1CCNC1=O)C2(C)C,,,"human, fasted","oral, 1500 mg single dose, 28 days, no ritonavir",,participants with serious adverse events,0%
COc1ccc([C@@H](O)c2cc(-c3ncnc4cc(N5CCOCC5)ccc34)c(F)cc2Cl)nn1,,,"patients, advanced solid tumours","oral, 250 mg once daily, 10 dosing days, treatment-emergent, with: avelumab, radiotherapy",,"injury, poisoning, procedural complications incidence",4%

# Excerpt of the above:
Structure (SMILES),tested on,assay,system,conditions,how to read,endpoint,value
CCOP(=S)(OCC)Oc1nc(Cl)c(Cl)cc1Cl,rat CYP3A,"midazolam 4-hydroxylation, non-competitive inhibitor","rat Sprague-Dawley, liver microsomes","10 min, pH 7.4, with: midazolam 15 to 214 µM",,Ki,77.7 ± 17.2 µM
